Measured values gathered from unrelated publications.
Every numbered part comes from another study and shows a few of its results, in no order.
UniProt Q9UK32, sequence (whole entry, looked up): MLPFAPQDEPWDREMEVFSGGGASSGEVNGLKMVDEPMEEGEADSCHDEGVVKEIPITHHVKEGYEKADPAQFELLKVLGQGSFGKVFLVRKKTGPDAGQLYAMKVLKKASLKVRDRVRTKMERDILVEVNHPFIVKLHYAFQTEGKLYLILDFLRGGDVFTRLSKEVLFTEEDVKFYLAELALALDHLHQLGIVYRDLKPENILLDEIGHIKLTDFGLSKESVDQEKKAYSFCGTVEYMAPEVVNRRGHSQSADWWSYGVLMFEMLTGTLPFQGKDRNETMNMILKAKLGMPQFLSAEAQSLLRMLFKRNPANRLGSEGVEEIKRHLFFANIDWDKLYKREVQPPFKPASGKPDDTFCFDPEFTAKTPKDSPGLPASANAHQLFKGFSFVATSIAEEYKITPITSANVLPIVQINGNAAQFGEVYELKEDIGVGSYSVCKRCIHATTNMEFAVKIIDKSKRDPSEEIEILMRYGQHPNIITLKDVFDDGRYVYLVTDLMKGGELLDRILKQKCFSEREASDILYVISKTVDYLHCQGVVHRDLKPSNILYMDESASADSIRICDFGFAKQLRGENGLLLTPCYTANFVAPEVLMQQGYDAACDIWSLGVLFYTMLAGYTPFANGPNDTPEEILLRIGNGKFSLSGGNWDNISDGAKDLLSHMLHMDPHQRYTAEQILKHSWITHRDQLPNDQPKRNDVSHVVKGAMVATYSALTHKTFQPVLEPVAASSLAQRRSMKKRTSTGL
UniProt P29597, sequence (whole entry, looked up): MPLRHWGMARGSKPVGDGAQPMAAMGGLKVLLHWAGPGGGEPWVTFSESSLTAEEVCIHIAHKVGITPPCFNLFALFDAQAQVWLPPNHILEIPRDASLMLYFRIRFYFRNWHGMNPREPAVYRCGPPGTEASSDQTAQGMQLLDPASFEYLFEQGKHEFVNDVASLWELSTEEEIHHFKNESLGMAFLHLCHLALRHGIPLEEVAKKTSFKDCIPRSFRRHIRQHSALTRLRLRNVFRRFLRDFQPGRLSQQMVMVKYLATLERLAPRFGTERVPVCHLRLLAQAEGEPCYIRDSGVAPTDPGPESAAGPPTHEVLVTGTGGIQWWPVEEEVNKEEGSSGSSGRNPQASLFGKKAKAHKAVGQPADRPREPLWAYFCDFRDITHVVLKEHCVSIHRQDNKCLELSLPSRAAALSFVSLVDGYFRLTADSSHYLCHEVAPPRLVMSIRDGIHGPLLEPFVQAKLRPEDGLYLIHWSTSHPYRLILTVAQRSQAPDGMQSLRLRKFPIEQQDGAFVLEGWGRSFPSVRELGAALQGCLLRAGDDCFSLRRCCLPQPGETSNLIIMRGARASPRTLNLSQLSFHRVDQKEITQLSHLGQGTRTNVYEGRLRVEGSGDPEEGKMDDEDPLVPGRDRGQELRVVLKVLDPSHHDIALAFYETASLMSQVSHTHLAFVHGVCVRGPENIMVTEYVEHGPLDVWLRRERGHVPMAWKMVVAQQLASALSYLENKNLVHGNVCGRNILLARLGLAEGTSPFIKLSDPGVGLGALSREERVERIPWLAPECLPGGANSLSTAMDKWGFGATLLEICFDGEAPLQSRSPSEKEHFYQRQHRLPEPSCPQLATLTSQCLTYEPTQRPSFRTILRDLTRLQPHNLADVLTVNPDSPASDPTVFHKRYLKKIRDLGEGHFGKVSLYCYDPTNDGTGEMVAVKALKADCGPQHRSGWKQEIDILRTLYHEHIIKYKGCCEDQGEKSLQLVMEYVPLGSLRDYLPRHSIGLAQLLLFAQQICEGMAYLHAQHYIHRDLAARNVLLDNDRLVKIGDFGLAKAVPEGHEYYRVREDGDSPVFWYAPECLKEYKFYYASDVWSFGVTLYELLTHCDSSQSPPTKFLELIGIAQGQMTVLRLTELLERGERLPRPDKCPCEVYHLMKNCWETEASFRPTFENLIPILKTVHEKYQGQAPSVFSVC
UniProt Q8TF76, sequence (whole entry, looked up): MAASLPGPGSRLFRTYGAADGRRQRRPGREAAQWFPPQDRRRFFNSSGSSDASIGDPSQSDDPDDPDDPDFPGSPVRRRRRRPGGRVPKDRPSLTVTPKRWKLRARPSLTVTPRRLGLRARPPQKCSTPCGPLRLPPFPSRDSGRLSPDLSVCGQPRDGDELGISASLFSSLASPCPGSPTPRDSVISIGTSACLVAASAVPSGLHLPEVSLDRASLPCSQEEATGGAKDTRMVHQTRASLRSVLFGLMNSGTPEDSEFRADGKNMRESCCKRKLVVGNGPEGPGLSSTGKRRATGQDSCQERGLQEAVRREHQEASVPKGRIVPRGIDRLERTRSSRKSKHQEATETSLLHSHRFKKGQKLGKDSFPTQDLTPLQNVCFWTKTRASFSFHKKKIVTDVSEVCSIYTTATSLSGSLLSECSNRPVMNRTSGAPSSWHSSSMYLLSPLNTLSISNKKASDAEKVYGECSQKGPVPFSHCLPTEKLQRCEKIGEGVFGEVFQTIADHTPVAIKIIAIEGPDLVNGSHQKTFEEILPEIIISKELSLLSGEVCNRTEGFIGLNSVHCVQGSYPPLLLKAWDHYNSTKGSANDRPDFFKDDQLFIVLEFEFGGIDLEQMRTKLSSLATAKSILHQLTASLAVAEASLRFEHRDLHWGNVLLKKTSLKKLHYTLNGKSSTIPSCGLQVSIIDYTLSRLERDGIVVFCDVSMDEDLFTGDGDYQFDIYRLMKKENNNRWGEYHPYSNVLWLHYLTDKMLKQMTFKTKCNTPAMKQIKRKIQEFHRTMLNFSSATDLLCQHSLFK
UniProt Q56UN5, sequence (whole entry, looked up): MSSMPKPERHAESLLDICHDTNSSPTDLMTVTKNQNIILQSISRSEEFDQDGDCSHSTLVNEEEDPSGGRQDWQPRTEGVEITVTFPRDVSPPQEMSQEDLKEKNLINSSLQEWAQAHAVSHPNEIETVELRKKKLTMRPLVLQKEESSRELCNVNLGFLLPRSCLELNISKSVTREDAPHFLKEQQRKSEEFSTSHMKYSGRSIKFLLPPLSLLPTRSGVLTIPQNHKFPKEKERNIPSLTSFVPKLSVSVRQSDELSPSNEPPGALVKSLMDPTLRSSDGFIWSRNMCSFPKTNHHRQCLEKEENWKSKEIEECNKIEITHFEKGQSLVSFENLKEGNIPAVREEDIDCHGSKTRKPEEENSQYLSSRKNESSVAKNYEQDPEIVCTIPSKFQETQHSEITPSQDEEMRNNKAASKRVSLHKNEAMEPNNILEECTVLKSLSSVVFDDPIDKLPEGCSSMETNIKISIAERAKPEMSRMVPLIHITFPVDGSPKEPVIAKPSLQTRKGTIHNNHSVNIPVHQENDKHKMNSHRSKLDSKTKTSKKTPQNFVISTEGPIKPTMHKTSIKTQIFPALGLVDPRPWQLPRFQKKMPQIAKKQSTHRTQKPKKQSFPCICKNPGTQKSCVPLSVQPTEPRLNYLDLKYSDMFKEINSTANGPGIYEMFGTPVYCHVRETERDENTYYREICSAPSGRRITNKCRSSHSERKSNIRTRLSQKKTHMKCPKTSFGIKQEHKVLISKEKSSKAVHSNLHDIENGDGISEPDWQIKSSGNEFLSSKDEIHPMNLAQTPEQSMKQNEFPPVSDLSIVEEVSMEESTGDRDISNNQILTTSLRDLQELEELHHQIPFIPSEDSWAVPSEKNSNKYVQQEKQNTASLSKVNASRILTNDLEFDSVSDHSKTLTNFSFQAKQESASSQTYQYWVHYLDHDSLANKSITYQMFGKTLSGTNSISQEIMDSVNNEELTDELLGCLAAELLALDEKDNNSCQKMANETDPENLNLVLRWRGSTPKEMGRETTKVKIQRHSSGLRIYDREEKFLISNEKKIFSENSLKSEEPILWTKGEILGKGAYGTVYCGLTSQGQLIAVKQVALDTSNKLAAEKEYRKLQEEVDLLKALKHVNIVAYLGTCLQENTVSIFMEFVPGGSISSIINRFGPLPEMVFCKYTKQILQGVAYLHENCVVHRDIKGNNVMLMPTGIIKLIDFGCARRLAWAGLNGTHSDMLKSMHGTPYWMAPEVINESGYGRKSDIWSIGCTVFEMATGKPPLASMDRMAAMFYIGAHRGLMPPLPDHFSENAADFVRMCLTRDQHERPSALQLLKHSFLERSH
UniProt P08588, sequence (whole entry, looked up): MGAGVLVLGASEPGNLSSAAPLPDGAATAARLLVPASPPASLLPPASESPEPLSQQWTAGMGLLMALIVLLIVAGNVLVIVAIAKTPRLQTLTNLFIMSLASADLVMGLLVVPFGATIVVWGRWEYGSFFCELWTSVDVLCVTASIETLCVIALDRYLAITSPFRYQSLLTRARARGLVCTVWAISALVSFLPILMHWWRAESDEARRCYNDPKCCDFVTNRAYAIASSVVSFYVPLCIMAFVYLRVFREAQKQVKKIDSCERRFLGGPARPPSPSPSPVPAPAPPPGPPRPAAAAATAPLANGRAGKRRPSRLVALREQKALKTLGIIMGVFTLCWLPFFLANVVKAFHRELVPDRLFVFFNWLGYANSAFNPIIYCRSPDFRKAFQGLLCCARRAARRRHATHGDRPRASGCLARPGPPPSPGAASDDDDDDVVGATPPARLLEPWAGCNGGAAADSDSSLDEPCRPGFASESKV
UniProt Q00537, sequence (whole entry, looked up): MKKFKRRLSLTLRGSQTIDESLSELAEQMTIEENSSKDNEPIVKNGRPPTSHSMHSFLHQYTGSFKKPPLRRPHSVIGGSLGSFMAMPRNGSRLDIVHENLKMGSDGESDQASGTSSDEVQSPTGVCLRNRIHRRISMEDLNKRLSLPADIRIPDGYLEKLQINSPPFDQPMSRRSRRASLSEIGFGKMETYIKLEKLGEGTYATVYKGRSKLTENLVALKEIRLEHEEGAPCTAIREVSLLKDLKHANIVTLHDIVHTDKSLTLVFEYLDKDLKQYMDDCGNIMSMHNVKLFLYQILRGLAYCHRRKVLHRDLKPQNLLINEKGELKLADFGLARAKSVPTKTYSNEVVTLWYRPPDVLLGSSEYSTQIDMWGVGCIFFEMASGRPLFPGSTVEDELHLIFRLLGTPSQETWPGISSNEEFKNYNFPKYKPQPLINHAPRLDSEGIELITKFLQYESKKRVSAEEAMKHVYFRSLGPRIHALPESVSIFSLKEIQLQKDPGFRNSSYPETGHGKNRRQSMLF

Sample 1
Structure (SMILES): O=S(=O)(NC1CCC(c2cc(F)ccc2F)(S(=O)(=O)c2ccc(Cl)cc2)CC1)C(F)(F)F (centres unmarked)
Effect on: cell-free assay
Method: competition with immobilised ligand
Tested at: 1 µM
target	remaining binding
ACVR1B (Homo sapiens, UniProt P36896)	87%
GSK3B (Homo sapiens, UniProt P49841)	100%
CDK17 (Homo sapiens, UniProt Q00537)	100%
MAP2K1 (Homo sapiens, UniProt Q02750)	100%
PRKD3 (Homo sapiens, UniProt O94806)	100%
EGFR (Homo sapiens, UniProt P00533, del746-750)	80%
MAP2K4 (Homo sapiens, UniProt P45985)	76%
MET (Homo sapiens, UniProt P08581, Y1235D)	97%
HASPIN (Homo sapiens, UniProt Q8TF76)	69%
STK36 (Homo sapiens, UniProt Q9NRP7)	100%
Non-receptor tyrosine-protein kinase TYK2, JH1 (TYK2, Homo sapiens, UniProt P29597)	100%
STK16 (Homo sapiens, UniProt O75716)	97%
EGFR (Homo sapiens, UniProt P00533, del747-750/T751S)	100%
Ribosomal protein S6 kinase alpha-6, C-terminal kinase domain (RPS6KA6, Homo sapiens, UniProt Q9UK32)	90%
MAP3K19 (Homo sapiens, UniProt Q56UN5)	84%
MYLK2 (Homo sapiens, UniProt Q9H1R3)	91%
BMPR2 (Homo sapiens, UniProt Q13873)	100%

Sample 2
Target: Prothrombin, mature alpha-thrombin (F2, Homo sapiens, UniProt P00734)
Method: aptamer microarray, sandwich
Form: DNA with 2'F-ANA
Sample: in vitro
Tested at: 200 nM
Notes: whole 15-mer aptamer, many near background
Together with: Cy3 exosite-II aptamer, 400 nM
Direction: higher = stronger binding
Sequence: GGTTGGTGTGGTTGG
Modification	mean fluorescence intensity [a.u.]
2'F-ANA at 1 5 6 7 11 12 13 15	67.6
2'F-ANA at 3 5 6 9 10 11 13 14	47.9
2'F-ANA at 4 6 7 11 12 15	380
2'F-ANA at 1 2 3 4 7 8 10 11 12 13 14 15	52.7
2'F-ANA at 5 6 7 8 10 11 14 15	45.5
2'F-ANA at 1 2 3 4 5 6 8 10 11 12 13 14	49
2'F-ANA at 2 3 4 5 10 11	81.9
2'F-ANA at 1 2 5 7 12 13 14 15	47.3

Sample 3
Partner: ARF18 482-602 (Arabidopsis thaliana, UniProt Q9C5W9)
Method: two-hybrid
Relative to: out of 4 tests
Direction: higher = firmer interaction
B1: IAA17 (Arabidopsis thaliana, UniProt P93830); chain MMGSVELNLRETELCLGLPGGDTVAPVTGNKRGFSETVDLKLNLNNEPANKEGSTTHDVVTFDSKEKSACPKDPAKPPAKAQVVGWPPVRSYRKNVMVSCQKSSGGPEAAAFVKVSMDGAPYLRKIDLRMYKSYDELSNALSNMFSSFTMGKHGGEEGMIDFMNERKLMDLVNSWDYVPSYEDKDGDWMLVGDVPWPMFVDTCKRLRLMKGSDAIGLAPRAMEKCKSRA
B2: ARF6 790-935 (Arabidopsis thaliana, UniProt Q9ZTX8); chain SENPQSNTFVKVYKSGSFGRSLDISKFSSYHELRSELARMFGLEGQLEDPVRSGWQLVFVDRENDVLLLGDDPWPEFVSSVWCIKILSPQEVQQMGKRGLELLNSAPSSNNVDKLPSNGNCDDFGNRSDPRNLGNGIASVGGSFNY
B3: ARF1 538-665 (Arabidopsis thaliana, UniProt Q8L7G0); chain SRQIRSCTKVHMQGSAVGRAIDLTRSECYEDLFKKLEEMFDIKGELLESTKKWQVVYTDDEDDMMMVGDDPWNEFCGMVRKIFIYTPEEVKKLSPKNKLAVNARMQLKADAEENGNTEGRSSSMAGSR
B4: ARF14 497-605 (Arabidopsis thaliana, UniProt Q9LQE8); chain SPTEIQSKQFSSTRTCTKVQMQGVTIGRAVDLSVLNGYDQLILELEKLFDLKGQLQARNQWEIAFTNNEEDKMLVGEDPWPEFCNMVKKIFIYSKEEVKNLKSRKSLSS
B5: IAA18 (Arabidopsis thaliana, UniProt O24408); chain MEGYSRNGEISPKLLDLMIPQERRNWFHDEKNSVFKTEEKKLELKLGPPGEEDDDESMIRHMKKEPKDKSILSLAGKYFSPSSTKTTSHKRTAPGPVVGWPPVRSFRKNLASGSSSKLGNDSTTSNGVTLKNQKCDAAAKTTEPKRQGGMFVKINMYGVPIGRKVDLSAHNSYEQLSFTVDKLFRGLLAAQRDFPSSIEDEKPITGLLDGNGEYTLTYEDNEGDKMLVGDVPWQMFVSSVKRLRVIKTSEISSALTYGNGKQEKMRR
B6: ARF12 500-593 (Arabidopsis thaliana, UniProt Q9XID4); chain TEIQNKQFSSSRTCTKVQMQGVTIGRAVDLSVLNGYDQLILELEKLFDIKGQLQTRNQWEIAFTDSDEDKMLVGDDPWPEFCNMVKKIFIQKRR
B7: IAA26 (Arabidopsis thaliana, UniProt Q8LAL2); chain MEGCPRNREIGPKLLDLIPQGRKWYQEDKNNTDQEKKLELRLGPPGGDEEDHSAIKKKNTEIRNIKKETEDKSFHCFNGNHFSPSNKTTSVPHISQKRTAPGPVVGWPPVRSFRKNLASTSSSKLGNESSHGGQINKSDDGEKQVETKKEGMFVKINMDGVPIGRKVDLNAYNSYEQLSFVVDKLFRGLLAAQRDISDGQGEEKPIIGLLDGKGEFTLTYEDNEGDKMLVGDVPWQMFVSSVKRLRVIKSSEISSALTFGCSKQEKMMH
Target sequence (chain): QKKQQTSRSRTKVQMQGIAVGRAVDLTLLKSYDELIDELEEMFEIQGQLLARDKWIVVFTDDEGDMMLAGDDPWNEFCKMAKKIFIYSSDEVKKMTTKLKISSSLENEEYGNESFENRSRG
Sequence	positive tests
B1 (IAA17)	0
B2 (ARF6 790-935)	2
B3 (ARF1 538-665)	0
B4 (ARF14 497-605)	0
B5 (IAA18)	0
B6 (ARF12 500-593)	2
B7 (IAA26)	0

Mixed results
Compound	tested on	test	test system	conditions	scale	measurement	value
COc1ccccc1CNC(=O)CCn1c(=O)[nH]c2ccsc2c1=O	mouse MPNST tumor cells	high-content immunofluorescence imaging, item: nuclear SOX9	–	10 µM, 12 h, mean of 2 replicates	relative to: DMSO control, higher = more nuclear SOX9	nuclear SOX9 intensity	97.3 % of DMSO
O=c1c(O[C@@H]2O[C@H](CO)[C@H](O)[C@H](O)[C@H]2O)c(-c2ccc(O)c(O)c2)oc2cc(O)cc(O)c12	Sarcocystis neurona	parasite growth	–	10 µM, 96 h	–	inhibition	-13.2%
Cc1nn(-c2n[nH]c(C)c2Br)c(C)c1C	–	–	mouse, microsomes or S9	2 µM, 0.5 h	–	remaining compound	14.2%
O=C(O)c1ccnc(-c2ccnc(NCC(O)c3ccccc3Cl)n2)c1 (centres unmarked)	ADRB1 (Homo sapiens, UniProt P08588)	antagonist	–	–	–	IC50	≥ 100 µM
CCC(CC)Nc1cc(C)nc(Oc2c(C)cc(C)cc2C)c1C	mouse MPNST tumor cells	high-content immunofluorescence imaging, item: nuclear SOX9	–	10 µM, 12 h, mean of 2 replicates	relative to: DMSO control, higher = more nuclear SOX9	nuclear SOX9 intensity	119 % of DMSO
CN(C)CCC[C@@]1(c2ccc(F)cc2)OCc2cc(C#N)ccc21	Sarcocystis neurona	parasite growth	–	10 µM, 96 h	–	inhibition	-3.7%

Excerpt of the above (mixed results):
Compound	tested on	test	test system	conditions	scale	measurement	value
COc1ccccc1CNC(=O)CCn1c(=O)[nH]c2ccsc2c1=O	mouse MPNST tumor cells	high-content immunofluorescence imaging, item: nuclear SOX9	–	10 µM, 12 h, mean of 2 replicates	relative to: DMSO control, higher = more nuclear SOX9	nuclear SOX9 intensity	97.3 % of DMSO
CN(C)CCC[C@@]1(c2ccc(F)cc2)OCc2cc(C#N)ccc21	Sarcocystis neurona	parasite growth	–	10 µM, 96 h	–	inhibition	-3.7%
O=C(O)c1ccnc(-c2ccnc(NCC(O)c3ccccc3Cl)n2)c1 (centres unmarked)	ADRB1 (Homo sapiens, UniProt P08588)	antagonist	–	–	–	IC50	≥ 100 µM
